Assay results gathered from unrelated publications.
Each numbered part is a random draw from the data of one study; scales do not carry over between parts. Substitutions count along the parent as printed.
Sequence of UniProt Q16539 (whole entry, looked up): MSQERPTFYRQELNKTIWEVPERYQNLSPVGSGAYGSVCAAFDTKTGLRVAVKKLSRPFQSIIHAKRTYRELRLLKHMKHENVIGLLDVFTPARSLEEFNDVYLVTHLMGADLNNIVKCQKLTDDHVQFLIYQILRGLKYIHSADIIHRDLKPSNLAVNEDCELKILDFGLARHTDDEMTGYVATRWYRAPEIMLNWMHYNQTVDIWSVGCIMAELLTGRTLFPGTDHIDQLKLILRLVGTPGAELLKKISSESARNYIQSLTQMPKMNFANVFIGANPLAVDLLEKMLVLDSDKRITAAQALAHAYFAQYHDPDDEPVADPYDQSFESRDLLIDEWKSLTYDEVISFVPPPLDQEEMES

Set 1
Target: CCNA2, cyclin fold, Cln2 fusion (human)
Technique: yeast growth competition, sequencing
Sample: yeast
Notes: strong parent motif
Reference: not given
Reading: higher = stronger binding
Starting sequence: viral docking peptide; PTARRRLLHDLDT; partner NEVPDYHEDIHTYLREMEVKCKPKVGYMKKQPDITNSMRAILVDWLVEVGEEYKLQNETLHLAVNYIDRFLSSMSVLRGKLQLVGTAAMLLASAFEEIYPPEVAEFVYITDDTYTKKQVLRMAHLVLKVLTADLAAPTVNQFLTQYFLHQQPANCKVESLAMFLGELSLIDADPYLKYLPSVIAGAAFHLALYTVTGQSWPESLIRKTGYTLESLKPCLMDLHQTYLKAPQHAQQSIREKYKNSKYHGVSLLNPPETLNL
Variant	normalised enrichment score
L11A	2.26
L8A	0.851
R5K H9F	6.13
L8F	6.8
R6A	3.25

Set 2
Target: inorganic phosphate, free oxyanion
Technique: microfluidic competitive inhibition
Sample: in vitro, cell-free expressed
Tested at: not given
Notes: derived from inhibition constants, unchanged parent 615000 nM
Reading: lower = stronger binding
Starting sequence: PafA, mature enzyme, eGFP fusion (Elizabethkingia meningoseptica, UniProt Q9KJX5); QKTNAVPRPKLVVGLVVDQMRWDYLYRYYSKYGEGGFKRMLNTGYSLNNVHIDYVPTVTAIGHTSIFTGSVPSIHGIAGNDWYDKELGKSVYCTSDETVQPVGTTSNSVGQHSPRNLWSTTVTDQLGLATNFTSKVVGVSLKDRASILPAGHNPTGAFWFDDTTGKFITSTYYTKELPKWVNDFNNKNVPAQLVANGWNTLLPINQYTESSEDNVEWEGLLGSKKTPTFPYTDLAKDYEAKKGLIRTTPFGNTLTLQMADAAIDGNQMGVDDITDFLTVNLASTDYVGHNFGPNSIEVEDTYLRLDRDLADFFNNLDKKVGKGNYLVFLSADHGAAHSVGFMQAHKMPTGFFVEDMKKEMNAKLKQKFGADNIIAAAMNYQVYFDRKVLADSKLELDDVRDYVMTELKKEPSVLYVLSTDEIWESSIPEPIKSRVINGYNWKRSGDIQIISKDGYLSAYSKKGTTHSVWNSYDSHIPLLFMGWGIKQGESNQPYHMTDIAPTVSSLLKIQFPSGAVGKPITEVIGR
Variant	phosphate dissociation constant
H345V	645 µM
V181A	671 µM
A157V	645 µM
G88A	537 µM
S283V	687 µM
L148V	614 µM
Q487V	631 µM

Further values, each from its own experiment
Structure (SMILES)	target	observed	action	tested at	reference	endpoint	value
O=C1NC(=O)c2c1c1c3ccccc3n3c1c1c2c2ccccc2n1[C@H]1CC[C@@H]3O1	Mitogen-activated protein kinase 14 (MAPK14, Homo sapiens, UniProt Q16539)	enzyme activity	inhibitor	0.5 µM	control	remaining activity	102%
O=C(NS(=O)(=O)c1ccc(NCC2CCOCC2)c([N+](=O)[O-])c1)c1ccc(N2CCN(Cc3ccc(C(F)(F)F)cc3-c3ccc(Cl)cc3)CC2)cc1Oc1cnc2[nH]ccc2c1	D(1B) dopamine receptor (DRD5, Homo sapiens, UniProt P21918)	ligand displacement	–	10 µM	–	inhibition	9.7%

A few entries again (set 2):
Variant	phosphate dissociation constant
S283V	687 µM
L148V	614 µM
